Measured values from different studies.
Every numbered part comes from another study and shows a few of its results, in no order.

Set 1 — method: RNA Bind-n-Seq; form: RNA; medium: in vitro; concentration: 200 nM; notes: whole 134-nt RNA, ends assumed; added: 150 mM KCl; relative to: input library; reading: higher = stronger binding
Target: Fragile X messenger ribonucleoprotein 1, C-terminal low-complexity region (Fmr1, Mus musculus, UniProt P35922)
All sequences stand within: GGGAGUUCUACAGUCCGACGAUC … UGGAAUUCUCGGGUGUCAAGG
Oligonucleotide	log2 enrichment
CAAGUCCUGUGCUACACAUCGUAUGUACCGAAUCGGAGGAAAAAAAGGUUUUUGGAAAGUAUUAUGUUACGCCGUUCGGAUCUGCACUUC	-0.883
UCCUGUGCUACACAUCGUAUGUACCGAAUCGGCCCCCCGGGCCCCCCGGGGCCCCCCGGAAAGUAUUAUGUUACGCCGUUCGGAUCUGCA	-0.4
UCCUGUGCUACACAUCGUAUGUACCGAAUCGGGCCCCCCGGCCCCCCGGGGCCCCCCGGAAAGUAUUAUGUUACGCCGUUCGGAUCUGCA	0.147
UGGGAGGUGGAUUUUGUUUAUUUUUUUAGCUCAUUUCCAGGGGUGGAAAUUUUUUUUUAAUAUGUGUCAUGAAUAAAGUUGUUUUUGAAA	0.27
CAAGUCCUGUGCUACACAUCGUAUGUACCGAAUCGGCCCCGGGGCCCCGGCCCCGGAAAGUAUUAUGUUACGCCGUUCGGAUCUGCACUU	-0.799
UUCAUUCCUUGGAAGAAGCUGUACCAUCGAUACCUGAUGAAUGAAGAGCAAGCUGUCAGCAAAGUGGACGGCAUCCUGUCUAACUGUGGC	-1.98
UAACUUUAGAGGAGGAUCUGAUGGAUAAGGCAGUGGACGUGGAUUUGGGGAUGGCUAUAAUGGGUAUGGAGGAGGACCUGGAGGUGGCAA	0.125
UGUGCUACACAUCGUAUGUACCGAAUCGGGGAAAAAAAGGGGUUUUUGGGGUUUUUUUGGGGAAAGUAUUAUGUUACGCCGUUCGGAUCU	0.349
UGGGAGGUGGAUUUUGUUUAUUUUUUUAGCUCAUUUCCAGGGGUGGGAAUUUUUUUUUAAUAUGUGUCAUGAACAAAGUUGUUUUUGAAA	0.379
UCAAGUCCUGUGCUACACAUCGUAUGUACCGAAUCGGGGUUGGUUGGGGUUGGGGAAAGUAUUAUGUUACGCCGUUCGGAUCUGCACUUC	0.862
CCUCAAGUCCUGUGCUACACAUCGUAUGUACCGAAUCGGGUGGGUGGGGUGGAAAGUAUUAUGUUACGCCGUUCGGAUCUGCACUUCCAG	1.33
CCUCAAGUCCUGUGCUACACAUCGUAUGUACCGAAUCGGUGGAGGAAAAAGGAAAGUAUUAUGUUACGCCGUUCGGAUCUGCACUUCCAG	0.106
GUCCUGUGCUACACAUCGUAUGUACCGAAUCGGGGUGGGGUUUGGGGAAAAAAAGGGGAAAGUAUUAUGUUACGCCGUUCGGAUCUGCAC	0.44
GUCCUGUGCUACACAUCGUAUGUACCGAAUCGGGGUUUUUGGGGAAAGGGGAAAGGGGAAAGUAUUAUGUUACGCCGUUCGGAUCUGCAC	0.333

Set 2 — method: RNA Bind-n-Seq; form: RNA; medium: in vitro; concentration: 365 nM; relative to: no-protein control; reading: higher = stronger binding
Target: RNA binding protein fox-1 homolog 2, RRM domain, GST-SBP tag (RBFOX2, Homo sapiens, UniProt O43251-10, residues 100-194)
Notes: natural RNA segment, single round, ends assumed
All sequences stand within: GGGAGUUCUACAGUCCGACGAUC … UGGAAUUCUCGGGUGCCAA
Residues (chain): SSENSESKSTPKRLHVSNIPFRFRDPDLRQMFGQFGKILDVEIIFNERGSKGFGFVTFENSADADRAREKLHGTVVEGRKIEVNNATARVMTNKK
Oligonucleotide	RBNS enrichment (R)
UAGGACACUACAAAACAAUCAAAUAAUUCUUUUCUGUAAUCCAAUAUGCAGCAAGCAAGGGUGACCUCCAGUGGCCCACUCAAGUCCAUGAGCCAUUAUCUAGGAUACUU	0.357
CCUCCACACCUCCCCGUAGAGGAGCGCCGAGCCUCGGCUCCUGCCGGCGGGAGCCCCCGAAUGCUGCACCCAGCCACCCAGCAGAGCCCGUUCAUGGUUGAUCUCCACGA	0.461
UUUUUUUAAAGAUUUAUUUAUAUGAGUACACUGUGGCUGUCUCAGACACACCAGAAGAGGGCAUCAGAUCCCAUUACAGAUGGUUGUGAGCCACCAUGUGGUUGCUUUAA	2.28
UGUGCUUAUUUGGAAUUUCCAUAAAAAGAGUAUCCUUUUUAUACACUUAAUAGUGACUUUACAAAAUAAAAGUUAUAUUCUCAGUUGUUUAAAAUCACUAACCUAUGAUA	0.642
UGGCUGGCAGAAGAAAUAAGCCCAUGCAAGUGGAAGGGCUGCUUUGUCAGGAGGUUGUGGAAUUUCUUUCUUCUCCCCUUCUUCCCUCCCAAAAGCUUAGCUAUGUAUAA	2.14
AAAGCCAAUUCCAGUGUUGGACGUGACAGGUCUUGUGUUUAGGUCAAGGUGUCUCCUCUCAGUGCAGGGACAUGCCUGCUCUGUGGGGCAGGCGAGGACCCUGAAUCAUU	1.15
CUUUAUGAAAUAUCCUUACUUUAUCUGGGCUUAAUAAGUCACUGACAUCAGCACUGCCAACUCGGCUGCAAUUGUGGACCUUCCCUACCAAAGGGAGUGUUGAAACUCAA	0.295
UCAUGGGAAGUGGGGGCACAGGGUGGGUUUCACACUGCAAGACUUGAAAGGGGGACAGGUAUACCCCUUAGCCCUUAGCUGUGUUAUUGGGAGAAAUGAUACACUUGGUC	1.14
GAAAUGUUGAAAUGUUUAACCUGAUAGGCUUCUCUAUAAAAGAGUGUUUUGUUUUUUUCCCUGCACCACAAGCUGUGUUUAUCACUUUACAGUUGCAUGUUCAACUUGUC	8.84
AGGCUGGUCUCAAACUUCUGACCUCAAGUGAUCUGCCCACCUUGGCCUCCCAAAGUGCUGGGAUUACAGGUGUAAGCCACUGCGCCCGGCCUUUUUAACUUUAAACAUGU	0.281
GAGGCAUUUAAUACAAAACCAGGAACUCCGAAUCCAUUGCUCUUUCCUCCUUUGCUUUCACUUCUUAAGUAUAUGUGUUCUGAAGUUGAGAUGGGAGAGAUUUGAAUAUA	0.837
GGCAAUAAUCAACAAUCUUCCAGAUUUGCACAAAAAGAUCUUGAAAUUUGAUGCAUAACUUUUAAGUACACUUAACACUUCAGGGCAGGAUUUUACUUUUAUUUUUUAAA	0.807

Set 3 — method: protein binding microarray; form: double-stranded DNA, one strand shown; medium: in vitro; concentration: not given; relative to: not given; reading: higher = stronger binding
Target: Histone acetyltransferase KAT6A, winged helix 2, GST fusion (KAT6A, Homo sapiens, UniProt Q92794, residues 85-181)
Notes: 8-mer, flanks averaged, mean of 2 arrays, mostly near background
Residues (chain): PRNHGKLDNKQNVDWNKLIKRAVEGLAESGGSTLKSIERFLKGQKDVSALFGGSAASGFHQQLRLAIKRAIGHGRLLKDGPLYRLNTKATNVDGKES
Oligonucleotide	E-score
GATATCCC	0.141
CTGGGAAC	0.107
CCCTAGAA	-0.0644
CTATATTC	-0.0888
CTCGCAAC	0.186
CACGCAGC	-0.0279
GTTAAGAA	0.101
CCGAACAC	-0.042
ACATAGAA	-0.137
ACCATCAA	-0.111
CATTATAA	-0.0216
ACTAATTA	0.136
ATTTGTGC	-0.0151
GTCGCGAA	0.0388
AGCGAACT	-0.0449
CCATGCTC	0.108
TAGCGGGA	0.0374

Set 4 — method: protein-binding microarray; form: double-stranded DNA, one strand shown; medium: in vitro; concentration: 2540 nM top; notes: 60-bp whole probe; added: salmon DNA 0.4 mg/ml; relative to: random background probes; reading: higher = stronger binding; all sequences stand within: GCCTAGCAC … GTCTTGATTCGCTTGACGCTGCTG
Target: Interferon regulatory factor 3, full length, phosphomimetic (IRF3, Homo sapiens, UniProt Q14653, residues 1-427, S386D/S396D/S398D/S402D/T404D/S405D)
Target sequence (chain): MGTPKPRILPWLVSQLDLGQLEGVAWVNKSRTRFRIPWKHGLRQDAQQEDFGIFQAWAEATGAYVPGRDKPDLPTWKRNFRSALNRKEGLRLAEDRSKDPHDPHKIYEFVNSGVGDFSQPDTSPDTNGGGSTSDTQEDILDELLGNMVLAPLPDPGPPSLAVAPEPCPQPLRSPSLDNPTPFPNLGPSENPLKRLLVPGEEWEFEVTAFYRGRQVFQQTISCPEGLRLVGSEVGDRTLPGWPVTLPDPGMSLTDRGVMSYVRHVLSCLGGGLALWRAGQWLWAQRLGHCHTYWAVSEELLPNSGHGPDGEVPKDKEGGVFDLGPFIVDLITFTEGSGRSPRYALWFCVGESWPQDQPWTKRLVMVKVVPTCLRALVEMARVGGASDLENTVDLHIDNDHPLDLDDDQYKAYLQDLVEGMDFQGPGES
Oligonucleotide	fitted relative affinity [z-score]
TTAGTTTTCATTATTGTGTCGTGCTAG	3.27
GACGGTCTCCTTTCCCTGACGTGCTAG	3.98
TCACAAATGCCCTCTCCAACTGTGCTA	0.333
CTGCCTAACATGCTTCGAGATGTGCTA	-0.0549
TTATGTATCGACTATCGGTTAGTGCTA	0.67
GGCGATCTCAGTCTCGAGACGTGCTAG	0.324
TCACATTTTTTTTTTCTACTGTGCTAG	0.897
TTAGGTTTCGCGTATCGGTTAGTGCTA	2.28
GACGGTTTCCTTTCGCTGACGTGCTAG	8.51
TTAGAACTGGGGTATCAATTAGTGCTA	-0.526
TTAGGTATCTTACTGCTTTAGTGCTAG	0.137
GACGGACTGCTTATCCTGGCGTGCTAG	-0.424
GACTATTTCAGTTTCGAGACGTGCTAG	4.04
TCATTTTTAGATTTTTTACTGTGCTAG	1.57
TTAGGTTTCGACTTTCGGTCAGTGCTA	3.83
TTAGGTGTCGGACTGGGTTAGTGCTAG	0.569

Set 5 — method: universal PBM; form: double-stranded DNA, one strand shown; medium: in vitro; concentration: 600 nM; reading: higher = stronger binding
Target: Sal-like protein 4, full length isoform A (SALL4, Homo sapiens, UniProt Q9UJQ4, residues 1-1053)
Sequence of UniProt Q9UJQ4 (whole entry, looked up): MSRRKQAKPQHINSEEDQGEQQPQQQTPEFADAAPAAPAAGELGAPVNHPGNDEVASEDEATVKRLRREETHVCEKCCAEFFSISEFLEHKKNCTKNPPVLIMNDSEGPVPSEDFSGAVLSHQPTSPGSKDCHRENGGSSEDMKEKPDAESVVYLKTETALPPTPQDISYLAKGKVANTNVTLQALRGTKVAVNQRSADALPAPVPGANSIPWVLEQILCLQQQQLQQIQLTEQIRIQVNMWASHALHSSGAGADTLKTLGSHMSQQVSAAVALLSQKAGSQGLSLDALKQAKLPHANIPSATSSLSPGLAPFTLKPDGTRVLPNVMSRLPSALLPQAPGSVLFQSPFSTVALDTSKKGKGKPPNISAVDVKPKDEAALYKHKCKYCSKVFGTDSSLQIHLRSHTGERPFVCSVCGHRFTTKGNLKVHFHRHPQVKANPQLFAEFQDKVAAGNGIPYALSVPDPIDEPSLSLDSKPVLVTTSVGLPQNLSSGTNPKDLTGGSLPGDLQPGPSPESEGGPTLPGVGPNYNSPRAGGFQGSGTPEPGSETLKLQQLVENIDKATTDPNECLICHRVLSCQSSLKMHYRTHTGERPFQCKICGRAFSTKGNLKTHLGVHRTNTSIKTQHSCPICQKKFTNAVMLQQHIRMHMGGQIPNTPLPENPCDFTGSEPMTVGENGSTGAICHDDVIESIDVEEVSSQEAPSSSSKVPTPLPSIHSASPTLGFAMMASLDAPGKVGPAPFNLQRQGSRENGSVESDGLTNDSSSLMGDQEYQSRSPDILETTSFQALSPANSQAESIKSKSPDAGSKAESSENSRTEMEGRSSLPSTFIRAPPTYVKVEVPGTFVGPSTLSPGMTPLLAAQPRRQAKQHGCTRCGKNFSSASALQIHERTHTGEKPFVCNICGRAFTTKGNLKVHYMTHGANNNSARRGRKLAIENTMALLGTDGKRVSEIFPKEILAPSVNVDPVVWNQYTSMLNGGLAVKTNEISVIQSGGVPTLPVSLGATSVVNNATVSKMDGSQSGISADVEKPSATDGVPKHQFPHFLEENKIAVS
Notes: 8-mer, flanks averaged, mean of replicates
Oligonucleotide	E-score
CCATGGAA	0.000935
GCCTTTCC	0.0048
GGAGAACC	-0.169
AACCTCAG	-0.148
ATAGGGAT	-0.0292
TAGCATGA	0.132
GGCGCCTA	-0.119
GGCCAAGA	-0.263
CACTAGCC	-0.219
AACGGTAA	0.0141
CTAGAACC	-0.183
AAGGAATC	-0.0817
CCTTAGCG	-0.28
ACGACTAG	0.0514
ATACTACC	0.0598
TCGGCCCA	-0.236
AGGACTCA	-0.101
AGTCTACG	-0.051
GAGCGAAA	0.00208
CACTTCTA	-0.0469
AAAAGTGT	0.0396
ATCCGGCG	-0.326
AATTTAAG	0.235
CCCTACGC	-0.253
ACATGGAT	0.208
